Experimental data gathered from unrelated publications.
Protocols differ between the studies behind these lines. Several values in a cell are separate wells, animals, samples, runs or records. ± gives the spread as reported.

CSc1cccc(Nc2ncc3cc(-c4c(Cl)cccc4Cl)c(=O)n(C)c3n2)c1 — beat rate (hiPSC-derived cardiomyocytes (iCell); impedance (xCELLigence Cardio); concentration not given, 2 h; reference: control): 94.6%
CCN(Cc1cccc(Cl)c1)c1ccc(CO)c(Cl)c1 — IC50 (RBE; cell viability, CellTiter-Glo): 230 nM
NC(=O)NOCCCCCCCCCCCC[P+](c1ccccc1)(c1ccccc1)c1ccccc1.O=C([O-])C(F)(F)F — cell confluence (HCT-116; cell growth, live-cell imaging; 1 µM, control at 90% confluence): 90.8 ± 3.61%
CCCOc1ccc(-c2ccc(C#N)cc2)cc1 — number of downregulated genes (BeWo; RNA sequencing; 500 µM, high dose): 673
Cc1nc(Nc2ncc(C(=O)Nc3c(C)cccc3Cl)s2)cc(N2CCN(CCO)CC2)n1 — IC50 (CAPAN-1; cell viability, MTT; mutant KRAS liver metastasis): 313 nM
Cn1cc(-c2ccc(-c3cncc(Cl)c3N3CCC4(CCNC4=O)CC3)cc2)cn1 — log2 fold change (COLO 205; gene expression, microarray, item: HIST1H4F mRNA; concentration not given, 2 h; reference: untreated cells): -2.67
Clc1nc(NCc2ccco2)c2[nH]cnc2n1 — ΔPSI (iPSC-derived cardiomyocytes; RNA-seq, item: chrX exon ending 63510079; unit not given; reference: DMSO minus compound): -0.206
NC(=O)NOCCCCCCCCCC[P+](c1ccccc1)(c1ccccc1)c1ccccc1.O=C([O-])C(F)(F)F — cell confluence (HCT-116; cell growth, live-cell imaging; 10 µM, control at 90% confluence): 26.8%
Nc1ncnc2c1ncn2[C@@H]1O[C@H](CO)[C@@H](O)[C@H]1O — TNF production (activated human T cells; 10 µM; higher = more TNF): 3290 a.u. and 3090 a.u. and 3140 a.u.
C=CC1=C(C)c2cc3[n-]c(cc4nc(cc5[n-]c(cc1n2)c(C)c5C=C)C(C)=C4CCC(=O)O)c(CCC(=O)O)c3C.[Zn+2] — fold change (SH-SY5Y; RNA-seq, item: LIF mRNA; 5 µM, 5 h; reference: untreated cells): 3.31
COc1cnc2cccc(N3CCc4c(cc(Cn5ccnc5C)cc4-c4cn(C)nc4C(F)(F)F)C3=O)c2c1 — EC50 (IM95; cell growth, inhibitor; 120 h): 2180 nM
Nc1nnc(-c2ccccc2O)cc1N1CCN(Cc2ccc(OCCOCCNc3cccc4c3C(=O)N(C3CCC(=O)NC3=O)C4=O)c(F)c2)CC1 (stereo not drawn) — enhancers shared with DMSO (NCI-H1975 (SMARCA4 wild type); ATAC-seq; 1 µM, 96 h): 88%
CC/C(=N\NC(=O)NCc1cccc(O)c1)c1ccc(O)c(C)c1O — protein level (SK-OV-3; Western blot, item: TAZ; 1 µM, 1 h, 2D culture, unit not given; reference: β-actin): 1.53 ± 0.76
Cc1cccc(-c2[nH]c(CNc3ccccc3F)nc2-c2ccc3ncnn3c2)n1 — surface marker level (RPMI-8226; flow cytometry, item: CD135; concentration not given; reference: comparator compound alone): 167%
CCN(Cc1ccccc1C)c1ccc(CO)c(Cl)c1 — IC50 (RBE; cell viability, CellTiter-Glo): 510 nM
Cc1cnc(NC2CCOCC2)nc1-n1cnc(C(=O)NC(CN)c2cc(F)cc(Cl)c2)c1 (stereo not drawn) — S phase cells (Rec1; flow cytometry; 1 µM, 24 h): 14.4%
NC(=O)NOCCCCCCCCCCCCCCCCCCCC[P+](c1ccccc1)(c1ccccc1)c1ccccc1.O=C([O-])C(F)(F)F — cell confluence (HCT-116; cell growth, live-cell imaging; 0.3 µM, control at 90% confluence): 14.4 ± 1.21%
CCn1cc(-c2cc(Cn3ccoc3=N)cc3c2CCN([C@@H](C)c2cc(OC)ccn2)C3=O)c(C(F)(F)F)n1 — EC50 (Rec1; cell growth, inhibitor; 120 h): 3140 nM
CCCCc1oc2ccc(NS(C)(=O)=O)cc2c1C(=O)c1ccc(OCCCN(CCCC)CCCC)cc1 — fold change (human embryonic stem cell aggregates; mRNA level, microarray, item: ADORA1; 0.5 µM, 120 h; reference: untreated, up-regulated): 2 fold
CCN(Cc1c(F)cccc1Cl)c1ccc(CO)c(Cl)c1 — IC50 (RBE; cell viability, CellTiter-Glo): 140 nM
CN1CCN(c2ccc3[nH]c(-c4ccc5[nH]c(-c6ccc(C(F)(F)F)cc6)nc5c4)nc3c2)CC1 — growth percent (SF-295; SRB; 10 µM, 48 h): 50.9%
C=Cc1c2[n-]c(c1C)/C=c1\[n-]/c(c(C)c1C=C)=C\c1[n-]c(c(CCC(=O)O)c1C)/C=c1\[n-]c(c(C)c1CCC(=O)O)=C2.[Sn+4] — fold change (SH-SY5Y; RNA-seq, item: SLC12A8 mRNA; 5 µM, 5 h; reference: untreated cells): 2.25
Cc1cc(Nc2ncc(Cl)c(Nc3ccccc3S(=O)(=O)C(C)C)n2)c(OC(C)C)cc1C1CCNCC1 — log2 fold change (CLB-BAR; phosphoproteomics LC-MS/MS, item: SLC35B3 phosphorylation; 200 nM, 60 min; reference: untreated): -3
OCc1ccc(-c2nn(Cc3cncnc3)c3ccccc23)o1 — IC50 (RBE; cell viability, CellTiter-Glo): 1030 nM
CCc1c(-c2ccccc2)c(-c2ccccc2)nn1-c1ccccc1-c1cccc(OCC(=O)O)c1 — normalized response (mouse bone marrow macrophages; osteoclast differentiation, inhibitor, TRAP staining; 0.3 µM, with: M-CSF and RANKL): 85.3% and 73.2% and 71.6% and 81.2% and 69.2% and 55.5%
CCc1ccc(NC(=O)NCCN2CCc3ccccc3C2)cc1 — protein level (BV-2; item: caspase-8; 30 nM, with: high glucose; reference: high glucose): decreased
CC(=O)c1nn(-c2ccc(Cl)cc2)/c(=N/N=C(\C)c2ccc(NC(=O)c3ccc(C)cc3)cc2)s1 — toxicity (MCF7; 10 µM): 94.8%
CNC(=O)c1c(F)cccc1Nc1nc(Nc2cc3c(cc2OC)CCN3C(=O)CN(C)C)nc2[nH]ccc12 — beat rate (hiPSC-derived cardiomyocytes (iCell); impedance (xCELLigence Cardio); concentration not given, 2 h; reference: control): 79.8%
NCc1ccc(-c2nn(Cc3ccncc3)c3ccccc23)o1 — IC50 (RBE; cell viability, CellTiter-Glo): 600 nM
Cc1sc2c(c1C)C(c1ccc(Cl)cc1)=N[C@@H](CC(=O)NCCCCCCCCNC(=O)COc1cccc3c1C(=O)N(C1CCC(=O)NC1=O)C3=O)c1nnc(C)n1-2 (stereo partly drawn) — late apoptotic and necrotic cells (4T1; Annexin V-FITC/PI flow cytometry; concentration not given): 10.4% and 8.89% and 10.7%
CCn1cc(-c2cc(Cn3ccnc3)cc3c2CCN([C@H](c2cc(OC)ccn2)C2CC2)C3=O)c(C(F)(F)F)n1 — EC50 (Rec1; cell growth, inhibitor; 120 h): 6470 nM
O=C(/C=C/C=C/C=C/C1CCCCC1)NC1=C[C@@](O)(/C=C/C=C/C=C/C(=O)NC2=C(O)CCC2=O)[C@@H]2O[C@@H]2C1=O — GI50 (NCI-H647; cell growth, CellTiter-Glo; 78 h): 24000 nM
CC(C)NCC(O)c1ccc(O)c(O)c1 (stereo not drawn) — sarcomere length (mouse ventricular cardiomyocytes; dose not given, 0.071 s): 1.8 µm
c1ccc2[nH]ccc2c1 — mRNA level, LS mean (HCT-8; RNA-seq, item: ANKRD37; concentration not given): 2.98 counts per million
Cn1cc(Nc2nccc(-c3ccc4c(c3)CN(C3COC3)CC[C@H]4NC(=O)c3cn(C(C)(C)C)nn3)n2)cn1 — number of downregulated genes (human B cells; 100 nM, 64 h, stimulation-upregulated genes, with: CD40L, anti-IgM, IL-4): 122
CCN(CCO)CCCC(C)Nc1ccnc2cc(Cl)ccc12 (stereo not drawn) — funny current (hiPSC-derived cardiomyocytes; perforated patch voltage clamp; 10 µM, with: hyperpolarizing step to -120 mV): -22 pA and -29.1 pA and -27.3 pA and -5.4 pA and -4.9 pA
NC(=O)NOCCCCCCCCCCCCCCCC[P+](c1ccccc1)(c1ccccc1)c1ccccc1.O=C([O-])C(F)(F)F — cell confluence (HCT-116; cell growth, live-cell imaging; 0.5 µM, control at 90% confluence): 48.4%
Nc1cccc2c1CN(C1CCC(=O)NC1=O)C2=O (stereo not drawn) — viability (bone marrow CD138+ myeloma cells; XTT; 0.4 µM, phenol red-free RPMI): 98%
C[C@H]1[C@@H](O)O[C@@H]2O[C@@]3(C)CC[C@H]4[C@H](C)CC[C@@H]1[C@@]24OO3 — late apoptotic cells (THP-1; annexin V/PI flow cytometry, item: annexin V+/PI+; 3.2 µM, 24 h): 1.6%
C[C@H](Nc1ccc2c(c1)OCCn1cc(N3C(=O)OC[C@H]3C(F)F)nc1-2)C(N)=O — Hill coefficient GR curve (IM95; cell growth, CellTiter-Glo; 120 h): 0.501
CN(C)CC(=O)N1CCC(c2ccc(NC(=O)c3nc(C#N)c[nH]3)c(C3=CCCCC3)c2)CC1 — beat amplitude (hiPSC-derived cardiomyocytes (iCell); impedance (xCELLigence Cardio); concentration not given, 2 h; reference: control): 105%
[177Lu+3].[Cl-].[Cl-].[Cl-] — dead cells (4T1; flow cytometry; 0.4 Bq/cell, 72 h): 34.2%
O=c1[nH]nc(OCCCc2ccc(Cl)cc2)c(NCc2cccnc2)c1Br — normalized enrichment score (HEK-293T; RNA-seq GSEA, item: HALLMARK_TGF_BETA_SIGNALING; concentration not given; direction not given): 1.27
Cc1ccc(CNC(=O)Cn2cc(CSc3nc4ccccc4[nH]3)nn2)cc1 — cytotoxicity (Caco-2; MTT; 3.91 ppm): 21.6%
Cn1cc(-n2cnc3c(NCc4nc5cc(Cl)c(Cl)cc5[nH]4)nc(N4CCOCC4)nc32)cn1 — luminescence signal (MDA-MB-231; cell viability, CellCounting-Lite; 8.23 nM, 37 °C; higher = more viable cells): 420000 a.u. and 354000 a.u. and 425000 a.u.
COc1ccc(-n2nc(C(C)=O)s/c2=N\N=C(/C)c2ccc(NC(=O)c3ccc(C)cc3)cc2)cc1 — toxicity (MCF7; 0.625 µM): 91.8%
C[C@]12CCCN1CC1=NNC(=O)c3cc(F)cc4[nH]c2c1c34 — EC50 (SW1573 colorectal cancer cells; cell viability; concentration not given, with: with temozolomide): > 3000 nM
OCc1coc(-c2nn(Cc3ccccc3)c3ccccc23)n1 — inhibition (RBE; cell viability; 46 µM): < 50%
NC(=O)NOCCCCCCCCCCCCCC[P+](c1ccccc1)(c1ccccc1)c1ccccc1.O=C([O-])C(F)(F)F — cell confluence (HCT-116; cell growth, live-cell imaging; 2 µM, control at 90% confluence): 6.39%
Nc1cccc2c1C(=O)N(C1CCC(=O)NC1=O)C2=O (stereo not drawn) — viability (MM1.S; XTT; 0.8 µM; reference: untreated): 33%
OCc1ccc(-c2nn(Cc3cccnc3)c3ccccc23)o1 — IC50 (RBE; cell viability, CellTiter-Glo): 270 nM and 260 nM
